Results collected from several papers.
Numbered parts are unrelated; each lists some results of a single study.

Series 1
Target: TAR DNA-binding protein 43, full length, His tag (TARDBP, Homo sapiens, UniProt Q13148, residues 1-414)
Technique: RNA Bind-n-Seq
Molecule type: RNA
Medium: in vitro
Concentration: 20 nM
Setting: 6-mer, flanks averaged, single round
Added: 150 mM LiCl
Reference: input library
Reading: higher = stronger binding
Endpoint: 6-mer enrichment (R)
CUCACG: 0.82
AAAUUC: 0.897
AAGUAG: 0.966
UCACCC: 1.02
CUUUGA: 0.945
ACUAUG: 0.901
CCGCUU: 0.939
CUACCC: 0.981
UCGGUC: 0.883
GAUGAG: 1.12
AUGGCG: 1.04
UGCGAU: 0.954

Series 2
Target: RNA binding protein fox-1 homolog 2, RRM domain, GST-SBP tag (RBFOX2, Homo sapiens, UniProt O43251-10, residues 100-194)
Technique: RNA Bind-n-Seq
Molecule type: RNA
Medium: in vitro
Concentration: 365 nM
Setting: natural RNA segment, single round, ends assumed
Reference: no-protein control
Reading: higher = stronger binding
Endpoint: RBNS enrichment (R)
Constant ends, left off below: GGGAGUUCUACAGUCCGACGAUC … UGGAAUUCUCGGGUGCCAA
Residues (chain): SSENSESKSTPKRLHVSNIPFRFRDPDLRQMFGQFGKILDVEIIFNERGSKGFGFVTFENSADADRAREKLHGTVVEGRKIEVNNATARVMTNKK
GAAAAGGAUACAAAAUGCAAAAUCCACAAUUUUGAUAACUGAAAAUUGCCAAUUGUUUUGCAGUACUUUAUUAUAUUGGGUGUCUUGUCUUUCUUGGGCUUUUAGUUAGC: 0.42
AACCCAUCUUUUGUUCUCCUAUAUCCUCCUUCUUCUGUUCCAUUUCAGUUCAGUUUCAGCGGUGCCAACCUCUUUGCGUUUCCUUUUUGUUGAUGAGGACCCAGAGCUGC: 0.819
CAACACCUAAGGUGUUGUGACUGUUCCCCCACCCAGUGCAUGUUCUUUCCCUCCAUUUCUGUGGCUUCCACGUCUGCAGUGGCCACUGAUACUCACUUGAGUCAGGCUCC: 19.2
UCCACCAAAAGGGCUCCCUGAGGGUCUGGGCAAGGGACCUGCUUCUAUUAGCCCUUCUCCAUGGCCCUGCCAUGCUCUCCAAACCACUUUUUGCAGCUUUCUCUAGUUCA: 1.17
AAAAGGCUCUUGUACAAAAUGUAGAUUAAAAUUUGGGUGAUUGUUGAUUGACCUUUGCAUACCCUGGAAAGCCAGGGUGUGAGUGGGGUGGUUGGGAGUGGUGCCAGUUG: 0.944
UGUGGUUCUUUUCAGUGUGCCUGCAUAGCGUUCCUGUGUGUACCCCAAGGAUAACUGUAUGCUAUCCUUUCCCUAUCGGUCCCACUGUGCUGUGUUCAGCACAUUUUAGG: 0.321
UAUUCCCUGAAGUAUGUAAUCCUUUGUACAGCUUUUCUAUCUUACAUAUAAAAAGGAGACAUGAGAAAGUACUUUUCUCUAGAGCUCCAACACUACUGGCUCUUGCUUUU: 0.963
CACUGCAGAGGAAGAACCCUGGGCACAGCAGCUUUGUCCUUGGCUACAAACUGUUACAACGUCACACAAUGAAGGCACAAAGUCCAACUUUCAAAGGGUGUAGGACUCCA: 0.582

Series 3
Target: RING finger protein unkempt homolog, zinc fingers 1-6, GST-SBP tag (UNK, Homo sapiens, UniProt Q9C0B0, residues 30-357)
Technique: RNA Bind-n-Seq
Molecule type: RNA
Medium: in vitro
Concentration: not given
Setting: RNA with constant flanks, human and mouse sites, ends assumed
Reference: input RNA pool
Reading: higher = stronger binding
Endpoint: bound/input enrichment
Constant ends, left off below: GGGAGUUCUACAGUCCGACGAUC … CAACAGAGGAUUGAGCAUCA
Construct (chain): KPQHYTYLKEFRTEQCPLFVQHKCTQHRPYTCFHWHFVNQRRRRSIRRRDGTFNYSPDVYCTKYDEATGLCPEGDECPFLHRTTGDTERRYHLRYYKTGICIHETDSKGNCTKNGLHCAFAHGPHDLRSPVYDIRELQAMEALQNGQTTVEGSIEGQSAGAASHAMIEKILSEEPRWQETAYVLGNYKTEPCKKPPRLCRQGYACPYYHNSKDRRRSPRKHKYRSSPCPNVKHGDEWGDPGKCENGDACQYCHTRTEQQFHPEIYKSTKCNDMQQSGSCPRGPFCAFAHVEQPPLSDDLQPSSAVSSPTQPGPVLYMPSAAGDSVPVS
GUUGACUCCCUCAAUGGAUUGGUUUACAUAGGUCAAAGAGGGGAUAACAUCCCAAAGAUAUUAGUGUUCACAGAGGAUGGAUAUUUCCUACGAGCCUGGAAUUAUACAGUUGACACACCU: 0.304 ratio
UAGGAAUGCUCGGGCUAAAGGAAUGUCAUUUUACAAGUAUGUAAUGGAAAGUCGUGAUCCUAGUACAAAUGUGAUAUUAUUGGAGGAUACUGCUGCAGUCUUGGGAGUUAUAAUAGCAGC: 1.03 ratio
GGGAGCCAAGUUCUGUGAAGUACUCUACUUCACCAGCAAGUUCAGACUACUCUUGGAAAUCACUUGAAAAACAAAAAAAAUAUACAUACUCUGGAUCGCGGGAUGUCAGUAAACAUGAGC: 0.394 ratio
GAGCCGGCCGAGCUCAUCCGACGAGCGCACGAGUUCAAAAGCCAAGGGGCGCAGUGCUACAAGGACAAGAAAUUCCGUGAAGCCAUAGGCAAAUACCACCGGGCGUUGCUGGAGCUGAAG: 0.168 ratio
AGAGGUGCAAAGAAGACUGCAGAAAUGAACGAAAAGCUCUCCAAGAUGGGUGAAAGUUCACUUAGAAACUUUACGAUGGACACAGAGUCCAGUGUUUAUAACUUUGAAGGAGAAGACUAU: 0.392 ratio
AACAAGAUGAAGGAUCAGCUGUUGCCAGAGAAGGGCUGUGGACUGGCGCCACCUCACUAUCCCACUUUGCUAACUGUCCCUGCCUCAGUGUCCCUGUCCUCUGGCAUCAGCAUGGACACA: 0.146 ratio
CGCAACGUGAUCGUGGAGCGCAGGAACCUGAUCACCGUGUGCAGGUUCUCUGUGAAAACCCUGCUAGAGAAGUACACAGCAGAACCCAUUGAUGACUCUUCCGAGGAGUUUGUUAAUUUC: 0.0758 ratio
CUACUAGUUCAUGGGUCUUUGGCUUUUCCUUUGGGGCUAGAUACCUACCAUGGCUGUGUGAUAGCUGCAGCUCGCUAUGGCCGGGGUCGGGUAGUUGUAACUGGUCAUAAGGUUUUAUUU: 0.595 ratio

Series 4
Target: Interferon regulatory factor 3, full length, phosphomimetic (IRF3, Homo sapiens, UniProt Q14653, residues 1-427, S386D/S396D/S398D/S402D/T404D/S405D)
UniProt Q14653, sequence (whole entry, unmodified, looked up): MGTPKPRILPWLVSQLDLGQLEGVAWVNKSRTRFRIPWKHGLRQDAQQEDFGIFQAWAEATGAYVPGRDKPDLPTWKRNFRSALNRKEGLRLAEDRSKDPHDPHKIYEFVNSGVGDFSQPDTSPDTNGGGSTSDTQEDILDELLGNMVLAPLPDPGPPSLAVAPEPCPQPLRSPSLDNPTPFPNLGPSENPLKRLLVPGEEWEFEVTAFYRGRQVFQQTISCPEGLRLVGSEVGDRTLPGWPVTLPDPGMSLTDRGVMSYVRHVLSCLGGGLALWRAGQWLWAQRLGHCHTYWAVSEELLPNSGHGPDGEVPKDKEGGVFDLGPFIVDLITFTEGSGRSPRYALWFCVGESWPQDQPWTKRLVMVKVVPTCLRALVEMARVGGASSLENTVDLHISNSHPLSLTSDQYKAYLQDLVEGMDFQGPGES
Technique: protein-binding microarray
Molecule type: double-stranded DNA, one strand shown
Medium: in vitro
Concentration: 2540 nM top
Setting: 60-bp whole probe
Added: salmon DNA 0.4 mg/ml
Reference: random background probes
Reading: higher = stronger binding
Endpoint: fitted relative affinity
Constant ends, left off below: GCCTAGCAC … GTCTTGATTCGCTTGACGCTGCTG
GACGTACTGCTTTTCCTGACGTGCTAG: 0.166 z-score
GACGGTTTTGGTATCGGGACGTGCTAG: 3.69 z-score
TCAATATCCATTATAGAACTGTGCTAG: 1.92 z-score
GACGATATCGGGTTTCGATACGTGCTA: 2.25 z-score
TCTCTTTCCACTTGTCTTTTCGTGCTA: 3.16 z-score
TTAGATATCAGACTGGTTTAGTGCTAG: 0.0474 z-score
TCATGATTGGTTGAACAACTGTGCTAG: -0.0734 z-score
CTAATATTCATTTTATTCAAGTGCTAG: 2.03 z-score
GACCCTGGACACTTCACGTAGTGCTAG: -0.513 z-score
TTAGGGTTCGGTATCGGTTAGTGCTAG: 3.72 z-score
GACGGTATCGGTTTCGGGAAGTGCTAG: 6.78 z-score
TTAGGTATCGGTTGCGGTTAGTGCTAG: 2.97 z-score
GACGGTTTCCGTTCCCTGACGTGCTAG: 7.74 z-score
AACGGACTGGGGTTTCGGGACGTGCTA: 0.676 z-score
GAATGTCTTCCCCTCTCTTTGTGCTAG: 0.332 z-score
TTAGATCTCAGTTTCTATTAGTGCTAG: 2.11 z-score
GACAGACTGGGTATCGGGACGTGCTAG: -0.04 z-score
TTAGGTCTCGGTCTCGTTTAGTGCTAG: 1.25 z-score
GACGGTTTCGACTATCGGGCCGTGCTA: 2.69 z-score

Series 5
Target: Histone acetyltransferase KAT6A, winged helix 2, GST fusion (KAT6A, Homo sapiens, UniProt Q92794, residues 85-181)
Technique: protein binding microarray
Molecule type: double-stranded DNA, one strand shown
Medium: in vitro
Concentration: not given
Setting: 8-mer, flanks averaged, mean of 2 arrays, mostly near background
Reference: not given
Reading: higher = stronger binding
Endpoint: E-score
Construct (chain): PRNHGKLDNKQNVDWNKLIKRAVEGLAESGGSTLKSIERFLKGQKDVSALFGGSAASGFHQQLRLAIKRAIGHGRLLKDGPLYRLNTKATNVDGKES
CCATCATA: -0.0996
GCTCTACA: 0.0592
CAGTAAGC: 0.0631
CGGCAAGA: 0.1
AACCCAAC: -0.143
AACGTCAG: -0.199
GGACTCAC: -0.17
CAAACGAG: 0.066
ATTCCACA: 0.0458
AAGTGGCA: 0.0132
ATAATAAG: -0.109
AGGCCCAC: -0.0293
AACAAGCG: 0.0352
CGCCCACC: 0.0735
AGCTCTAG: 0.0191
AACCCTAT: -0.0282
AACAGACC: 0.0119
ATACTGTC: 0.0314
ATACCCCG: -0.065
AATCAACC: -0.116
GCCTGCTA: 0.0899
GACCGAAA: 0.141
GATCGCCC: -0.0482
CCGCGTGC: 0.101
AGAGCTTG: 0.0966
